Experimental data from different studies.
Values joined by “and” are separate records of one study, mostly repeats; a detail may differ. Numbers after ± are the reported error.
Genome polyprotein NS2B-NS3 protease: Genome polyprotein, NS2B-NS3 protease (dengue virus type 2, UniProt P29990)

`Cc1cc(Cl)cc(-c2ccnc3cc(CN4C(=O)C5C(C4=O)C5(C)C)sc23)c1C[C@@H]1CNCCO1` (some centres unmarked) gave a viability of 106% (CHP-212 USP7 V517F knock-in clone; SRB; 0.07812 µM).
For `CCN(CC)CC(=O)Nc1cccc(-n2cc(-c3ccc4ccc(-c5cn(-c6cccc(NC(=O)CN(CC)CC)c6)nn5)cc4c3)nn2)c1`, the fold regulation was -1.33 (RCC4; PCR angiogenesis array, refers to: AKT1; 5 x IC50, 6 h, normoxia; baseline: untreated).
`Cc1ncsc1-c1ccc(C(C)NC(=O)C2CC(O)CN2C(=O)C(NC(=O)CCCCCCCCCCN2CCCC(Nc3ncc(Cl)c(Nc4ccccc4S(=O)(=O)C(C)C)n3)C2)C(C)(C)C)cc1` (centres unmarked): “log2 fold change” -1.37 (22Rv1; RNA-seq, refers to: LMAN2L mRNA; concentration not given; baseline: DMSO).
`Cn1ncc2cc(-c3cncc(Cl)c3N3CCC4(CCNC4=O)CC3)ccc21`: “log2 fold change” 1.5 (LS174T; gene expression, microarray, refers to: AKR1C2 mRNA; concentration not given, 4 h; baseline: untreated cells).
The EC50 of `C=C(NC(=O)c1csc(-c2ccc(NC(=O)CCCCCBr)cc2)n1)C(=O)NC(=C)C(=O)OC` is reported as 0.7 µM (U-251; cell growth or viability).
`N#Cc1cc(NC(=O)c2cc(-c3ccccc3)n(-c3ccccc3)n2)ccc1N1CCCC1` has an EC50 of 29 µM (Genome polyprotein NS2B-NS3 protease; reporter gene; HeLa).
`CO[C@@H]1[C@@H](OC(N)=O)[C@@H](O)[C@H](Oc2ccc3c(O)c(NC(=O)c4ccc(O)c(CC=C(C)C)c4)c(=O)oc3c2C)OC1(C)C` has a colony survival of 65.8% (HCT-116 BRCA2 wild-type; 200 µM, mean of replicates A, B; baseline: untreated).
`CCCCCCCCCCCCCCCC(=O)OCC(CSC[C@H](N)C(=O)N[C@@H](CO)C(=O)N[C@@H](CCCCN)C(=O)N[C@@H](CCCCN)C(=O)N[C@@H](CCCCN)C(=O)N[C@@H](CCCCN)C(=O)NCCCCCC(=O)N[C@@H](CCCCN)C(=O)N[C@@H](CC(C)C)C(=O)N[C@H](C(=O)N[C@@H](Cc1ccccc1)C(=O)N[C@@H](Cc1ccccc1)C(=O)N[C@@H](Cc1ccc2ccccc2c1)C(=O)O)C(C)C)OC(=O)CCCCCCCCCCCCCCC` (some centres unmarked) has a mRNA level of 0.501 FPKM and 0.39 FPKM and 0.556 FPKM (BV-2; RNA-seq, refers to: Ccl22; concentration not given).
`[Cl-].[Cl-].[Ru+2].c1cc(-c2ccc3cccnc3n2)nc(-c2ccc3cccnc3n2)c1.c1ccc2cc3nc4c5cccnc5c5ncccc5c4nc3cc2c1` has a phototoxicity index of 2 (B16-F10; resazurin; added: light 523 nm, 100 J/cm2; baseline: dark EC50 over light EC50).
For `CC(=NN=c1sc(C(=O)c2ccccc2)nn1-c1ccccc1)c1ccc(S(=O)(=O)N2CCC(C)CC2)cc1`, “cells in pre-G1 phase” read 16.1% (HCT-116; flow cytometry; 3.66 µM (IC50), 72 h).
For `Cc1nc(Nc2ncc(C(=O)Nc3c(C)cccc3Cl)s2)cc(N2CCN(C(=O)CN)CC2)n1`, “early apoptotic cells” read 16.7% and 18% and 18.6% (KU812; flow cytometry; concentration not given, 6 h).
With `NCc1cccc(CNC(=O)c2cc(-c3ccccc3)n(-c3ccccc3)n2)c1` the EC50 was 30 µM (Genome polyprotein NS2B-NS3 protease; reporter gene; HeLa).
For `O=C(C[Se]C(=O)c1ccccc1Nc1cccc(C(F)(F)F)c1)Nc1cccc(C(F)(F)F)c1`, “mean growth percent” read -84.8% (NCI60 breast subpanel; cell growth; 10 µM, 48 h, one-dose).
`CCC(=CCc1c(O)cc2c(c1O)C(=O)CC(c1ccc(O)cc1)O2)CC` (centres unmarked) — result for “late apoptotic cells”: 87% (HeLa; annexin V/PI; 48 µM, 48 h).
The IC50 of `CNS(=O)(=O)Nc1nccc(Cc2c(C)c3ccc(Oc4ncccc4F)cc3oc2=O)c1F` is reported as 0.0113 µM (KMM-1; cell viability; 7 days).
Under “log2 fold change”, `C=CC(=O)N1CCCC(n2c(=O)c3ncccc3n(Cc3ccc(Oc4ccccc4)cc3)c2=O)C1` (centres unmarked) is recorded as 0.618 (Rec1; refers to: RHOB; concentration not given; baseline: untreated).
`CCOc1cncc(-c2ccc(NC(=O)C3(c4ccnc(NS(=O)(=O)C5CC5)n4)CCOCC3)nc2)n1` gave an IC50 of 10 µM (renal cancer; cell viability, CellTiter-Glo; DMSO 0.1%; 72 h, line code 393).
With `CC(C)(C)c1cc(-c2ccc3cccnc3n2)nc(-c2ccc3cccnc3n2)c1.[Cl-].[Cl-].[Ru+2].c1cnc2c(c1)ccc1cccnc12` the EC50 was 231 ± 9 µM (B16-F10; cytotoxicity, resazurin; dark).
`CC(=O)NCC(=O)N[C@@H](Cc1ccccc1)C(=O)N[C@@H](Cc1ccccc1)C(=O)N[C@@H](Cc1ccc(O)cc1)C(=O)NCC(=O)N[C@@H](Cc1ccc(O)cc1)C(=O)NCC(=O)N[C@@H](CO)C(=O)N[C@@H](CO)C(=O)N[C@@H](CO)C(=O)N[C@@H](CCCNC(=N)N)C(=O)N[C@@H](CCCNC(=N)N)C(=O)N[C@@H](C)C(=O)N1CCC[C@H]1C(=O)N[C@@H](CCC(N)=O)C(=O)N[C@H](C(=O)O)[C@@H](C)O` gave a proliferation-promoting concentration of 31.2 to 500 nM (mouse dermal papilla cells; CCK-8; 48 h).
`CC(C)c1ccc(N(C)c2ccc3c(c2)OCC[C@H]3CNc2cnccc2C(=O)O)cc1` gave an IC50 of 0.00419 µM (AZ-521; cell viability, CellTiter-Glo; 7 days).
`CC(C)(C)c1cc(-c2ccc3cc4ccccc4nc3n2)nc(-c2ccc3cc4ccccc4nc3n2)c1.[Cl-].[Cl-].[Ru+2].c1ccc2cc3nc4c5cccnc5c5ncccc5c4nc3cc2c1` gave a phototoxicity index of 3 (B16-F10; resazurin; added: light 523 nm, 100 J/cm2; baseline: dark EC50 over light EC50).
`COC1CN([C@H]2CC[C@H]([C@@]3(C)Oc4c(Cl)cc(C(=O)NCc5c(SC)cc(C)[nH]c5=O)c(C)c4O3)CC2)C1` — result for “log2 fold change”: 1.77 (RNA-seq, refers to: CCR3; human, whole blood; dose not given, 24 h; baseline: pretreatment baseline).
The osteoclast formation of `CSCC[C@H](N)C(=O)N[C@@H](C)C(=O)N[C@@H](CCCNC(=N)N)C(=O)N[C@@H](CCCNC(=N)N)C(=O)N[C@@H](CC(=O)O)C(=O)N[C@@H](CCCCN)C(=O)N[C@H](C(=O)N[C@@H](CC(=O)O)C(=O)N[C@@H](Cc1ccccc1)C(=O)N[C@@H](C)C(=O)N[C@@H](CCCNC(=N)N)C(=O)N[C@@H](CCCNC(=N)N)C(=O)N[C@@H](CCCNC(=N)N)C(=O)N[C@@H](CCCNC(=N)N)C(=O)NCCCCCC(=O)NCCCCC(NC(=O)CCCCCNC(=O)[C@H](CCCNC(=N)N)NC(=O)[C@H](CCCNC(=N)N)NC(=O)[C@H](CCCNC(=N)N)NC(=O)[C@H](CCCNC(=N)N)NC(=O)[C@H](C)NC(=O)[C@H](Cc1ccccc1)NC(=O)[C@H](CC(=O)O)NC(=O)[C@@H](NC(=O)[C@H](CCCCN)NC(=O)[C@H](CC(=O)O)NC(=O)[C@H](CCCNC(=N)N)NC(=O)[C@H](CCCNC(=N)N)NC(=O)[C@H](C)NC(=O)[C@@H](N)CCSC)[C@@H](C)O)C(=O)NCCCCC(NC(=O)C(CCCCNC(=O)CCCCCNC(=O)[C@H](CCCNC(=N)N)NC(=O)[C@H](CCCNC(=N)N)NC(=O)[C@H](CCCNC(=N)N)NC(=O)[C@H](CCCNC(=N)N)NC(=O)[C@H](C)NC(=O)[C@H](Cc1ccccc1)NC(=O)[C@H](CC(=O)O)NC(=O)[C@@H](NC(=O)[C@H](CCCCN)NC(=O)[C@H](CC(=O)O)NC(=O)[C@H](CCCNC(=N)N)NC(=O)[C@H](CCCNC(=N)N)NC(=O)[C@H](C)NC(=O)[C@@H](N)CCSC)[C@@H](C)O)NC(=O)CCCCCNC(=O)[C@H](CCCNC(=N)N)NC(=O)[C@H](CCCNC(=N)N)NC(=O)[C@H](CCCNC(=N)N)NC(=O)[C@H](CCCNC(=N)N)NC(=O)[C@H](C)NC(=O)[C@H](Cc1ccccc1)NC(=O)[C@H](CC(=O)O)NC(=O)[C@@H](NC(=O)[C@H](CCCCN)NC(=O)[C@H](CC(=O)O)NC(=O)[C@H](CCCNC(=N)N)NC(=O)[C@H](CCCNC(=N)N)NC(=O)[C@H](C)NC(=O)[C@@H](N)CCSC)[C@@H](C)O)C(N)=O)[C@@H](C)O` (some centres unmarked) is reported as 63% (mouse C57BL/6 BMMs; 0.1 µM, 3 days, added: RANKL; baseline: untreated control).
`CCN(C(=O)c1cc(F)ccc1Oc1nncnc1N1CCC2(C1)CN([C@H](CCCN(C)CCOC)C(C)C)C2)C(C)C` gave a GI50 of greater than 10 µM (U-87 MG; cell growth; 168 h).
`CN1CCCNC(=O)c2cccc(c2)C(=O)NCCCN(C)CCCNc2cccc3c2C(=O)c2cccc(c2C3=O)NCCC1`: “log2 fold change” 1.23 (SAS; RNA-Seq, refers to: ACTA2 mRNA; 1 µM, 6 h; baseline: untreated cells).
`O=C(C[Se]C(=O)c1cc2ccccc2s1)Nc1cccc(C(F)(F)F)c1` — result for “mean growth percent”: -63.8% (NCI60 breast subpanel; cell growth; 10 µM, 48 h, one-dose).

Excerpt of the above:
The EC50 of `C=C(NC(=O)c1csc(-c2ccc(NC(=O)CCCCCBr)cc2)n1)C(=O)NC(=C)C(=O)OC` is reported as 0.7 µM (U-251; cell growth or viability).
`CCOc1cncc(-c2ccc(NC(=O)C3(c4ccnc(NS(=O)(=O)C5CC5)n4)CCOCC3)nc2)n1` gave an IC50 of 10 µM (renal cancer; cell viability, CellTiter-Glo; DMSO 0.1%; 72 h, line code 393).
`CO[C@@H]1[C@@H](OC(N)=O)[C@@H](O)[C@H](Oc2ccc3c(O)c(NC(=O)c4ccc(O)c(CC=C(C)C)c4)c(=O)oc3c2C)OC1(C)C` has a colony survival of 65.8% (HCT-116 BRCA2 wild-type; 200 µM, mean of replicates A, B; baseline: untreated).
The IC50 of `CNS(=O)(=O)Nc1nccc(Cc2c(C)c3ccc(Oc4ncccc4F)cc3oc2=O)c1F` is reported as 0.0113 µM (KMM-1; cell viability; 7 days).
